Experimental data gathered from unrelated publications.
Protocols differ between the studies behind these lines. Several values in a cell are separate wells, animals, samples, runs or records. ± gives the spread as reported.

| Structure (SMILES) | assay | system | conditions | Cmax |
| --- | --- | --- | --- | --- |
| CC[C@H](C)[C@H](NC(=O)[C@H](CCC(=O)O)NC(=O)[C@H](CO)NC(=O)[C@@H](NC(=O)[C@@H](N)CO)C(C)C)C(=O)N[C@@H](CCC(N)=O)C(=O)N[C@@H](CC(C)C)C(=O)N[C@@H](CCSC)C(=O)N[C@@H](Cc1cnc[nH]1)C(=O)N[C@@H](CC(N)=O)C(=O)N[C@@H](CC(C)C)C(=O)NCC(=O)N[C@@H](CCCCN)C(=O)N[C@@H](Cc1cnc[nH]1)C(=O)N[C@@H](CC(C)C)C(=O)N[C@@H](CC(N)=O)C(=O)N[C@@H](CO)C(=O)N[C@@H](CCSC)C(=O)N[C@@H](CCC(=O)O)C(=O)N[C@@H](CCCN=C(N)N)C(=O)N[C@H](C(=O)N[C@@H](CCC(=O)O)C(=O)N[C@@H](Cc1c[nH]c2ccccc12)C(=O)N[C@@H](CC(C)C)C(=O)N[C@@H](CCCN=C(N)N)C(=O)N[C@@H](CCCCN)C(=O)N[C@@H](CCCCN)C(=O)N[C@@H](CC(C)C)C(=O)N[C@@H](CCC(N)=O)C(=O)N[C@@H](CC(=O)O)C(=O)N[C@H](C(=O)N[C@@H](Cc1cnc[nH]1)C(=O)N[C@@H](CC(N)=O)C(=O)N[C@@H](Cc1ccccc1)C(=O)O)C(C)C)C(C)C | – | postmenopausal women, osteoporosis, plasma | subcutaneous, 56.5 µg once weekly | 0.496 to 0.654 ng/mL |
| CCOc1ccc(Cc2cc([C@@H]3S[C@H](CO)[C@@H](O)[C@H](O)[C@H]3O)c(OC)cc2C)cc1 | – | Japanese type 2 diabetes patients, plasma | oral, 5 mg single dose, eGFR ≥90 mL/min/1.73 m^2 | 272 ± 86.4 ng/mL |
| C[C@H]1Oc2cc(cnc2N)-c2c(nn(C)c2C#N)CN(C)C(=O)c2ccc(F)cc21 | – | healthy adults | oral tablet, 100 mg single dose, high-fat meal, adjusted geometric mean | 484 ng/mL |
| CCOc1ccc2cc(-c3nn(CC4CCN(C)CC4)c4ncnc(N)c34)ccc2c1 | LC-MS/MS | Neospora caninum-infected pregnant sheep, plasma | oral, 100 mg/kg, after dose 3 | 2400 ± 1200 nM |
| CC[C@H](C)CCCCC(=O)N[C@@H](CCN)C(=O)N[C@H](C(=O)N[C@@H](CCN)C(=O)N[C@H]1CCNC(=O)[C@H]([C@@H](C)O)NC(=O)[C@H](CCN)NC(=O)[C@H](CCN)NC(=O)[C@H](CC(C)C)NC(=O)[C@@H](Cc2ccccc2)NC(=O)[C@H](CCN)NC1=O)[C@@H](C)O | UPLC-MS/MS | intensive care patients Overall, plasma | iv, dose not given, end of infusion, steady state, polymyxin B dosing | 6300 ± 1900 ng/mL |
| Cc1ccnc2c1NC(=O)c1cccnc1N2C1CC1 | – | olive baboon female, serum | oral, 400 mg, tablet | 328 ± 13.4 ng/mL |
| O=C(Cc1cccc(OC(F)(F)F)c1)Nc1ccc(CCCCc2nnc(NC(=O)Cc3ccccn3)s2)nn1 | – | patients, plasma | oral, 600 mg twice daily, fed, steady state, cycle 1 day 15, mean | 1460 ng/mL |
| CO/N=C1\C[C@]2(C[C@@H]3C[C@@H](C/C=C(\C)C[C@@H](C)/C=C/C=C4\CO[C@@H]5[C@H](O)C(C)=C[C@@H](C(=O)O3)[C@]45O)O2)O[C@H](/C(C)=C/C(C)C)[C@H]1C | – | parasitized Corriedale lambs, plasma | subcutaneous, 0.2 mg/kg, added: closantel 5 mg/kg subcutaneous | 33.2 ± 16.9 ng/mL |
| Cc1ccc(Sc2ccccc2N2CCNCC2)c(C)c1 | – | healthy women, plasma | oral, 10 mg once daily, fed, day 12 | 13.8 ng/mL |
| COc1cc2c(cc1OC)CN(CCc1ccc(NC(=O)c3cc(OC)c(OC)cc3NC(=O)c3cnc4ccccc4c3)cc1)CC2 | – | human, plasma | intravenous infusion, 8 mg/kg | 1590 ng/mL |
| CC(=O)Nc1ccc(OS(=O)(=O)O)cc1 | – | healthy volunteers, plasma | oral, 650 mg acetaminophen, day 6, added: favipiravir 800 mg, extended | 2400 ng/mL |
| N[C@@H](CC(=O)N1CCn2c(nnc2C(F)(F)F)C1)Cc1cc(F)c(F)cc1F | – | healthy Korean subjects, plasma | oral, 100 mg single dose, ABCB1 G2677T/A GT | 466 ± 167 ng/mL |
| CO[C@H]1C[C@@H]2CC[C@@H](C)[C@@](O)(O2)C(=O)C(=O)N2CCCC[C@H]2C(=O)O[C@H]([C@H](C)C[C@@H]2CC[C@@H](OP(C)(C)=O)[C@H](OC)C2)CC(=O)[C@H](C)/C=C(\C)[C@@H](O)[C@@H](OC)C(=O)[C@H](C)C[C@H](C)/C=C/C=C/C=C/1C | HPLC-MS/MS | Japanese patients, whole blood | oral, 40 mg, day 26, cycle 1, geometric mean | 188 ng/mL |
| Cc1ccccc1-c1cc(N2CCN(C)CC2)ncc1N(C)C(=O)C(C)(C)c1cc(C(F)(F)F)cc(C(F)(F)F)c1 | – | healthy volunteers, plasma | oral, 300 mg single dose, mean, added: palonosetron 0.50 mg fixed combination | 534 ng/mL |
| NC(=O)c1cnc2[nH]ccc2c1N[C@@H]1[C@@H]2CC3C[C@H]1C[C@@](O)(C3)C2 | – | healthy Caucasian men, plasma | oral, 200 mg, single dose fasted | 381 ng/mL |
| CON(C)C(=O)N1N=C(c2cc(F)ccc2F)S[C@@]1(CCCN)c1ccccc1 | – | patients, plasma | intravenous, dose not given, day 3, cycle 1 day 3 | 35.6 ng/mL |
| C[C@@H](N)c1cc(Cl)ccc1Cn1c(=S)[nH]c(=O)c2[nH]ccc21 | – | healthy Chinese volunteers, plasma | oral, 5 mg once daily, day 10, geometric mean | 39.7 nM |
| CC/C(=C(\c1ccccc1)c1ccc(OCCN(C)C)cc1)c1ccccc1 | – | female breast cancer patients, plasma | dose-normalised to 20 mg, added: weak CYP2D6-inhibiting SSRI escitalopram or citalopram | 366 nM |

| Structure (SMILES) | assay | system | conditions | Cmax |
| --- | --- | --- | --- | --- |
| CC(C)=CCC[C@](C)(O[C@@H]1O[C@H](CO)[C@@H](O)[C@H](O)[C@H]1O)[C@H]1CC[C@]2(C)[C@@H]1[C@H](O)C[C@@H]1[C@@]3(C)CC[C@H](O[C@@H]4O[C@H](CO)[C@@H](O)[C@H](O)[C@H]4O[C@@H]4O[C@H](CO)[C@@H](O)[C@H](O)[C@H]4O)C(C)(C)[C@@H]3CC[C@]12C | LC-MS/MS | healthy male volunteers, serum | oral, 3 g red ginseng | 1.53 ± 2.18 ng/mL |
| Cc1ccc(NC(=O)c2ccc(CN3CCN(C)CC3)cc2)cc1Nc1nccc(-c2cncc(-c3oncc3C)c2)n1 | – | Parkinson's disease patients, plasma | oral, 50.0 mg once daily, day 1, 7-day dosing, mean | 1720 ng/mL |
| CN[C@H](CC(C)C)C(=O)N[C@H]1C(=O)N[C@@H](CC(N)=O)C(=O)N[C@H]2C(=O)N[C@H]3C(=O)N[C@H](C(=O)N[C@H](C(=O)O)c4cc(O)cc(O)c4-c4cc3ccc4O)[C@H](O)c3ccc(c(Cl)c3)Oc3cc2cc(c3O[C@@H]2O[C@H](CO)[C@@H](O)[C@H](O)[C@H]2O[C@H]2C[C@](C)(N)[C@H](O)[C@H](C)O2)Oc2ccc(cc2Cl)[C@H]1O | – | pig (Danish Landrace), plasma, free concentration | iv infusion, 1000 mg over 100 min, added: meropenem co-administered | 35000 ng/mL |
| CC1Cc2ccccc2N1NC(=O)c1ccc(Cl)c(S(N)(=O)=O)c1 (centres unmarked) | – | healthy Chinese volunteers, plasma | oral, 1.25 mg, fasting, added: perindopril tert-butylamine 4 mg | 19.1 ± 5 ng/mL |
| CS(=O)(=O)c1ccc([C@@H](O)[C@@H](CF)NC(=O)C(Cl)Cl)cc1 | – | chicken, HY-Line Brown hens, plasma | oral, 20 mg/kg | 7350 ± 1310 ng/mL |
| Br.Cc1ccc(Sc2ccccc2N2CCNCC2)c(C)c1 | – | healthy adults, plasma | 10 mg at steady state, day 16, added: omeprazole 40 mg single dose | 13.9 ng/mL |
| CC(C)(Sc1ccncc1-c1ccc(C#N)c2ccccc12)C(=O)O | – | healthy Japanese male subjects, plasma | oral, 15 mg single dose, day 1, fasted, geometric mean | 32.2 ng/mL |
| N[C@@H](Cc1ccc(O)c(O)c1)C(=O)O | – | rhesus and cynomolgus macaque, plasma | subcutaneous, dose not given, added: PDE9 inhibitor 5 mg/kg | 84.9 ng/mL and 93.3 ng/mL |
| COc1cc(OC)c(/C=C/S(=O)(=O)Cc2ccc(OC)c(NCC(=O)O)c2)c(OC)c1 | – | cancer patients, phase I, plasma | oral, 280 mg twice daily, day 21 cycle 1 | 730 ± 440 ng/mL |
| CC(C)=CCC[C@](C)(O[C@@H]1O[C@H](CO)[C@@H](O)[C@H](O)[C@H]1O)[C@H]1CC[C@]2(C)[C@@H]1[C@H](O)C[C@@H]1[C@@]3(C)CC[C@H](O[C@@H]4O[C@H](CO)[C@@H](O)[C@H](O)[C@H]4O)C(C)(C)[C@@H]3CC[C@]12C | LC-MS/MS | healthy volunteers, serum | oral, 3 g fermented red ginseng | 2.79 ± 4.29 ng/mL |
| CCCC[C@H](NC(C)=O)C(=O)N[C@H]1CCC(=O)NC[C@@H](C(=O)N[C@@H](Cc2c[nH]c3ccccc23)C(N)=O)NC(=O)[C@H](CCCNC(=N)N)NC(=O)[C@@H](Cc2ccccc2)NC(=O)[C@H](Cc2c[nH]cn2)NC1=O | – | healthy volunteers, plasma | subcutaneous, 1.0 mg once daily, day 7, steady state geometric mean | 20.1 ng/mL |
| CN1C(=O)[C@@H](NC(=O)c2nnc(Cc3ccccc3)[nH]2)COc2ccccc21 | – | healthy men, plasma | oral, 20 mg once daily, day 14, geometric mean | 300 ng/mL |
| COc1cccc(N2CCN(C3=Nc4c(F)cccc4[C@H](CC(=O)O)N3c3cc(C(F)(F)F)ccc3OC)CC2)c1 | UHPLC-MS/MS | healthy women, plasma | intravenous infusion, 480 mg single dose, 60 min infusion, HPβCD formulation | 27300 ± 4420 ng/mL |
| C#C[C@]1(O)CC[C@H]2[C@@H]3CCC4=CC(=O)CC[C@@H]4[C@H]3CC[C@@]21C | – | healthy women, plasma | oral, 1 mg single dose, day 1, added: ethinyl estradiol 35 µg | 8.3 ng/mL |
| NC(=O)c1cnc2[nH]ccc2c1N[C@@H]1[C@@H]2CC3C[C@H]1C[C@@](O)(C3)C2 | – | Japanese, mild hepatic impairment, plasma | oral, 150 mg single dose, mean | 372 ng/mL |
| CC#CC(=O)N1CCC[C@H]1c1nc(-c2ccc(C(=O)Nc3ccccn3)cc2)c2c(N)nccn12 | – | Japanese patients, plasma | oral, 100 mg twice daily, day 8, fasting, multiple dose, geometric mean | 1120 ng/mL |
| O=C1CCc2ccc(OCCCCN3CCN(c4cccc(Cl)c4Cl)CC3)cc2N1 | – | healthy Japanese men, CYP2D6 IM, plasma | oral, 3 mg aripiprazole single, added: fluvoxamine 100 mg/day | 19.3 ± 3.9 ng/mL |

Excerpt of the above:
| Structure (SMILES) | assay | system | conditions | Cmax |
| --- | --- | --- | --- | --- |
| Cc1ccc(NC(=O)c2ccc(CN3CCN(C)CC3)cc2)cc1Nc1nccc(-c2cncc(-c3oncc3C)c2)n1 | – | Parkinson's disease patients, plasma | oral, 50.0 mg once daily, day 1, 7-day dosing, mean | 1720 ng/mL |
| N[C@@H](CC(=O)N1CCn2c(nnc2C(F)(F)F)C1)Cc1cc(F)c(F)cc1F | – | healthy Korean subjects, plasma | oral, 100 mg single dose, ABCB1 G2677T/A GT | 466 ± 167 ng/mL |
| CC(C)=CCC[C@](C)(O[C@@H]1O[C@H](CO)[C@@H](O)[C@H](O)[C@H]1O)[C@H]1CC[C@]2(C)[C@@H]1[C@H](O)C[C@@H]1[C@@]3(C)CC[C@H](O[C@@H]4O[C@H](CO)[C@@H](O)[C@H](O)[C@H]4O[C@@H]4O[C@H](CO)[C@@H](O)[C@H](O)[C@H]4O)C(C)(C)[C@@H]3CC[C@]12C | LC-MS/MS | healthy male volunteers, serum | oral, 3 g red ginseng | 1.53 ± 2.18 ng/mL |
